Results from different studies.
Every numbered part comes from another study and shows a few of its results, in no order. Changes are numbered by the printed parent chain.
Chain of UniProt P06239 (whole entry, looked up): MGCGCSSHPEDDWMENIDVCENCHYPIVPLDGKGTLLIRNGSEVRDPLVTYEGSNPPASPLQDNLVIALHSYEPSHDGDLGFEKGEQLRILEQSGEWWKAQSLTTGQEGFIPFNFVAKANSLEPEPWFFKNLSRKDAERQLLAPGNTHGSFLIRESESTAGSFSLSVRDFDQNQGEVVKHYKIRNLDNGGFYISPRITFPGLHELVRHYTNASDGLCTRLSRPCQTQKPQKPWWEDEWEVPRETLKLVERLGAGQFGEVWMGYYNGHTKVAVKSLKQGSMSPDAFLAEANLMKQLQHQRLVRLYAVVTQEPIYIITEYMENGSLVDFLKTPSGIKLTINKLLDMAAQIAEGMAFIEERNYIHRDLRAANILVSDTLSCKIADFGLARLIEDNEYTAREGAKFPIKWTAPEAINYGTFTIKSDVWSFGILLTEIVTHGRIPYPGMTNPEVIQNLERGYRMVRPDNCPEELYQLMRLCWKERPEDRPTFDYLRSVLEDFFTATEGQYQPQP

Block 1 — target: CCND2, cyclin fold, Cln2 fusion (human); technique: yeast growth competition, sequencing; matrix: yeast; setting: weak parent motif; reference: not given; reading: higher = stronger binding; measurement: normalised enrichment score; parent: viral docking peptide; TSVRRALFTGGSD
TSVLRALFTGGSD [R4L]: -0.0364
TSVRRALETGGSD [F8E]: -0.00823
TSVRRWLFTGGSD [A6W]: -0.39
TSVRRALFFGGSD [T9F]: 0.368
TSVRRALKTGGSD [F8K]: -0.194
TSVWRALFTGGSD [R4W]: -0.393
TSVRRALFTGVSD [G11V]: 0.283
TSWRRALFTGGSD [V3W]: -0.475
TSVPRALFTGGSD [R4P]: 0.335
TSVRRALFTVGSD [G10V]: -0.303
TSRRRALFTGGSD [V3R]: 0.558
TSVRRALFTGGPD [S12P]: 0.106
TSVRRALFTGTSD [G11T]: 0.313
TSVRRALFTGISD [G11I]: 0.0302
TSVRRHLFTGGSD [A6H]: 0.17
TSVRRELFTGGSD [A6E]: 0.221
TSVRHALFTGGSD [R5H]: 0.408
TSVRRALFTYGSD [G10Y]: -0.118
TSVRRALFEGGSD [T9E]: 0.13
TSVRRALFDGGSD [T9D]: 0.0951
TLVRRALFTGGSD [S2L]: 0.351
TSVRRALFTGESD [G11E]: 0.00327
TSVRAAAFTGGSD [R5A L7A]: 0.0774
TSVRRASFTGGSD [L7S]: -0.0352
THVRRALFTGGSD [S2H]: 0.0653

Block 2 — technique: RNA Bind-n-Seq; form: RNA; matrix: in vitro; tested at: 20 nM; setting: 6-mer, flanks averaged, single round; together with: 150 mM KCl; reference: input library; reading: higher = stronger binding; measurement: 6-mer enrichment (R)
Target: TAR DNA-binding protein 43, full length, His tag (TARDBP, Homo sapiens, UniProt Q13148, residues 1-414)
UGACGG: 1.52
GCAGAC: 0.938
GAUCCC: 0.64
CGUCUA: 0.592
AAGUCG: 0.797
UACAAG: 0.722
CUCUAC: 0.55
UUGGGU: 1.63

Block 3 — technique: Spec-seq; form: double-stranded DNA, one strand shown; matrix: in vitro; tested at: not given; setting: whole probe, mean of replicates; reference: not given; reading: lower = stronger binding; measurement: relative binding energy; shared flanks, not repeated: GAGTCGTCTCGTCAGCAC … CCGTAGAGCACTCAGGTC
Target: POU, POU domain (Salpingoeca helianthica)
Residues (chain): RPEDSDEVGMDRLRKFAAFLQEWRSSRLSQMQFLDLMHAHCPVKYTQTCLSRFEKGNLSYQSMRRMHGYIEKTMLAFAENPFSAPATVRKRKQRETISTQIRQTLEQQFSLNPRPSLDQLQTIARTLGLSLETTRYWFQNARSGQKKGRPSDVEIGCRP
ATGCATTG: 1.43 ln ratio
ATGCTTCA: 1.49 ln ratio
ATATTCAT: 0.997 ln ratio
ATGCGCGC: 1.39 ln ratio
ATGTCCAT: 1.14 ln ratio
GAGTTAAT: -0.557 ln ratio
ATGCATCG: 1.02 ln ratio
GCATTAAT: -0.0531 ln ratio

Block 4 — technique: aptamer microarray, sandwich; form: DNA with 2'F-ANA; matrix: in vitro; tested at: 200 nM; together with: Cy3 exosite-II aptamer, 400 nM; reading: higher = stronger binding; measurement: mean fluorescence intensity; sequence: GGTTGGTGTGGTTGG
Target: Prothrombin, mature alpha-thrombin (F2, Homo sapiens, UniProt P00734)
Setting: whole 15-mer aptamer, many near background
2'F-ANA at 2 3 4 6 7 8 9 10 11 12: 239 a.u.
2'F-ANA at 1 4 5 6 7 9 11 13: 50.2 a.u.
2'F-ANA at 1 6 7 8 9 13 14: 56.1 a.u.
2'F-ANA at 1 3 5 8 9 11 12 14: 85.7 a.u.
2'F-ANA at 1 2 4 7 9 10 11 13 14: 47.7 a.u.
2'F-ANA at 1 6 9 10 13: 63.4 a.u.
2'F-ANA at 1 2 3 9 12 15: 433 a.u.
2'F-ANA at 1 2 3 4 5 7 8 9 13: 52.9 a.u.

Other studies, line by line
P1: PafA, mature enzyme, eGFP fusion (Elizabethkingia meningoseptica, UniProt Q9KJX5); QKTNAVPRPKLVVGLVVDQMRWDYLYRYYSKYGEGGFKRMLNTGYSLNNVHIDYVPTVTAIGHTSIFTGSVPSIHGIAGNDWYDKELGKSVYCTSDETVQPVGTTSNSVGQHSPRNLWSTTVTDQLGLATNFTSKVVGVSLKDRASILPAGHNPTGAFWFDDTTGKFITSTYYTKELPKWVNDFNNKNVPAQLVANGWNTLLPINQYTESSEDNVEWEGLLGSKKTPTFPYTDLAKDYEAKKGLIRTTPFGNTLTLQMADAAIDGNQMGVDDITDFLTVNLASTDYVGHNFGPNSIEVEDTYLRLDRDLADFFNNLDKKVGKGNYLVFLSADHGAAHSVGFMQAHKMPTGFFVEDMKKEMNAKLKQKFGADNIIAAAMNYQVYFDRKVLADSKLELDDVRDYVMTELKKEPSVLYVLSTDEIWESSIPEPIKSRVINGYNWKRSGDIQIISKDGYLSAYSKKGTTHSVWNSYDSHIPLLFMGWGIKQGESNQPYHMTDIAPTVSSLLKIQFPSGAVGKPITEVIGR
COC(=O)c1cc(N(C)C(=O)c2ccn3ncc(-c4ccc(C(=O)O)cc4)c3c2)ccc1Cl — IC50 (Tyrosine-protein kinase Lck (LCK, Homo sapiens, UniProt P06239); enzyme activity, inhibitor): > 30 µM
P1 K452V — oxyanion analog dissociation constant (tungstate, free oxyanion; microfluidic competitive inhibition; in vitro, cell-free expressed; not given, derived from inhibition constants, unchanged parent 2230 nM; lower = stronger binding): 1.99 µM

A few entries again (block 1):
TSWRRALFTGGSD [V3W]: -0.475
TSVPRALFTGGSD [R4P]: 0.335
TSVRRALFTVGSD [G10V]: -0.303
TSRRRALFTGGSD [V3R]: 0.558
TSVRRALFTGGPD [S12P]: 0.106
TSVRRALFTGTSD [G11T]: 0.313
TSVRRALFTGISD [G11I]: 0.0302
TSVRRHLFTGGSD [A6H]: 0.17
